{"data": "Measurements from different studies", "note": "Numbered parts are unrelated; each lists some results of a single study."}
{"data": "Series 1", "target": "Ras GTPase-activating protein-binding protein 1, full length (G3BP1, Homo sapiens, UniProt Q13283)", "method": "RNA Bind-n-Seq", "form": "RNA", "sample": "in vitro", "tested at": "200 nM", "notes": "whole 134-nt RNA, ends assumed", "with": "150 mM LiCl", "reference": "input library", "direction": "higher = stronger binding", "all molecules": "7-deaza-guanosine replaces G", "chain of UniProt Q13283 (whole entry, looked up)": "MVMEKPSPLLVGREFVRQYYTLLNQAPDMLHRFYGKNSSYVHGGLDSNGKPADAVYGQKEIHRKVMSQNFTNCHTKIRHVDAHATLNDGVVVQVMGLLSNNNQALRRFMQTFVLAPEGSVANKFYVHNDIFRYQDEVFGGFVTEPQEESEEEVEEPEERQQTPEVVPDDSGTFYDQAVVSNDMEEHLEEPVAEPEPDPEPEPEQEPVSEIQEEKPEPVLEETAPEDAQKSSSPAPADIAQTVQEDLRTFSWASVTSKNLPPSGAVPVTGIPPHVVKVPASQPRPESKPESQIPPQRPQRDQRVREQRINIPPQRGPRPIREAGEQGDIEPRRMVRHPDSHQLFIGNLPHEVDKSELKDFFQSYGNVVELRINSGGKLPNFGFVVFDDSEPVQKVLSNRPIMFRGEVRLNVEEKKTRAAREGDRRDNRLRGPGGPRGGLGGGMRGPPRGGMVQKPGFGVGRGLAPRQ"}
{"Strand": "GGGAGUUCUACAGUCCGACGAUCUGUCGGGGCCAAAGUGGUAACGAACGCCCGCAGCCCGGGGGCUCGAUGCUAUGGAUUCGUCACCAUGUCGACAUCUGACGAGGCGACCAAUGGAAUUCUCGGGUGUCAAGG", "log2 enrichment": -2.31}
{"Strand": "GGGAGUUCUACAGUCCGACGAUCACCAUGCAGGUGGGCAUCUUUGGGAAGUGGGGCAAGGGGGGGAUAGGGAUGGGGGUAACACUUUGGGAACAGGUGGUCCCAGGUCGUUUCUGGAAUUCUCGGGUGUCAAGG", "log2 enrichment": 0.34}
{"Strand": "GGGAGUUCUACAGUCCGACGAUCCUGUGCUACACAUCGUAUGUACCGAAUCGGGGAAAGGGGUUUUUUUGGGGUUUUUUUGGGGAAAGUAUUAUGUUACGCCGUUCGGAUCUGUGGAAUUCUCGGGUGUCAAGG", "log2 enrichment": 0.0311}
{"Strand": "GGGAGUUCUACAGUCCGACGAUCAGAGAAAAGGAACAGUUCCGUAAGCUCUUUAUUGGUGGCUUAAGCUUUGAAACCACAGAAGAAAGUUUGAGGAACUACUACGAACAAUGGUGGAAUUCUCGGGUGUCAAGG", "log2 enrichment": -2.93}
{"Strand": "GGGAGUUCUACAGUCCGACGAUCUGUGCUACACAUCGUAUGUACCGAAUCGGGGUUUUUUUGGGGAAAAAGGGGAAAAAAAGGGGAAAGUAUUAUGUUACGCCGUUCGGAUCUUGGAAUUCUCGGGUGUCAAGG", "log2 enrichment": -0.458}
{"data": "Series 2", "target": "Sal-like protein 4, full length isoform A (SALL4, Homo sapiens, UniProt Q9UJQ4, residues 1-1053)", "method": "universal PBM", "form": "double-stranded DNA, one strand shown", "sample": "in vitro", "tested at": "600 nM", "notes": "8-mer, flanks averaged, mean of replicates", "direction": "higher = stronger binding", "chain of UniProt Q9UJQ4 (whole entry, looked up)": "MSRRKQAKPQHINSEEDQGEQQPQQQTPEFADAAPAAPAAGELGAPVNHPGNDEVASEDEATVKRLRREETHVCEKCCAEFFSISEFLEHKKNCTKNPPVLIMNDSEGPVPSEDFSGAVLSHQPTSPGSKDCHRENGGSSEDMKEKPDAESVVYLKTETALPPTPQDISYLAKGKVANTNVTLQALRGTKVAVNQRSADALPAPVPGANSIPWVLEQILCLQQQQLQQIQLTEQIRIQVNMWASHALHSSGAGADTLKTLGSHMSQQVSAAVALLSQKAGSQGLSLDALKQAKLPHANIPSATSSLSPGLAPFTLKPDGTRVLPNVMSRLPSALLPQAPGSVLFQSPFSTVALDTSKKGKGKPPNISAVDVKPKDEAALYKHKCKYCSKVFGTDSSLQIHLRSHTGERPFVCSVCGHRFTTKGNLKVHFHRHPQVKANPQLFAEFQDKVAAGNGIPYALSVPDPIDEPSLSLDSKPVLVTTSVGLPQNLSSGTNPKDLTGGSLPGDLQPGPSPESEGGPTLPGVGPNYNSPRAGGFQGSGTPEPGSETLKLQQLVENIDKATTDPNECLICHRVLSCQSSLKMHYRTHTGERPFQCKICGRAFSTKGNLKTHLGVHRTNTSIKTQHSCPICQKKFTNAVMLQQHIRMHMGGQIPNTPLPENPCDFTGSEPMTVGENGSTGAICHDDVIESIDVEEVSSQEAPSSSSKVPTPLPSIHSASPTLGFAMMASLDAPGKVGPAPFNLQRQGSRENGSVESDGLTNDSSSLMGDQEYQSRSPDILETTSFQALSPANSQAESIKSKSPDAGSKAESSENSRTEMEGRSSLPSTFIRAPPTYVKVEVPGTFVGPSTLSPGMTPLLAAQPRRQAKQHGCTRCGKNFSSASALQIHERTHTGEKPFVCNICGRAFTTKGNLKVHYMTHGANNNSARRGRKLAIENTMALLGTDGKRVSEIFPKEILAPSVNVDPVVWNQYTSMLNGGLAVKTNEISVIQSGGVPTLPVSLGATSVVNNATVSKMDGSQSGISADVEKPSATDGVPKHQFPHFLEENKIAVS"}
{"Strand": "CTCCCCGA", "E-score": -0.303}
{"Strand": "CCTCCTCC", "E-score": -0.286}
{"Strand": "CATCGAAA", "E-score": 0.106}
{"Strand": "CGAGACGA", "E-score": -0.163}
{"data": "Series 3", "target": "Interferon regulatory factor 7, full length, phosphomimetic (IRF7, Homo sapiens, UniProt Q92985, residues 1-503, S101K/S471D/S472D/S475D/S476D/S477D/S483D/S484D/S487D)", "method": "protein-binding microarray", "form": "double-stranded DNA, one strand shown", "sample": "in vitro", "tested at": "250 nM", "notes": "60-bp whole probe", "with": "salmon DNA 0.4 mg/ml", "reference": "random background probes", "direction": "higher = stronger binding", "all sequences stand within": "GCCTAGCAC … GTCTTGATTCGCTTGACGCTGCTG", "chain of UniProt Q92985 (whole entry, unmodified, looked up)": "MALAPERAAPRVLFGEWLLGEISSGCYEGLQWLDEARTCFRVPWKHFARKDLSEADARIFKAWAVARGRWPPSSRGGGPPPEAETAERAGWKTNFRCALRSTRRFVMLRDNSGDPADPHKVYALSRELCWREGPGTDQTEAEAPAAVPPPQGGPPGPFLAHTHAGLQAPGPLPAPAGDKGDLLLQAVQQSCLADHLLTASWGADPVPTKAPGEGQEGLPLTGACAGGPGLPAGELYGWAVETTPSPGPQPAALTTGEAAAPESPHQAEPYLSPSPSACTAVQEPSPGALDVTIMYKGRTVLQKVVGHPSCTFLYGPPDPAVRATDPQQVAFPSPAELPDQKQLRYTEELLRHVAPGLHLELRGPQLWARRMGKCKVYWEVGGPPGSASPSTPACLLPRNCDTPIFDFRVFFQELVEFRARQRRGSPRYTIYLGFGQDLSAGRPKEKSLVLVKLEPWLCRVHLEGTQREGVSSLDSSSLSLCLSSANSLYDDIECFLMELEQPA"}
{"Strand": "TTAGGTTCCGGACTGGGTTAGTGCTAG", "log fluorescence": "0.945 z-score"}
{"Strand": "GACGATATCGGGGATCGAGACGTGCTA", "log fluorescence": "-0.646 z-score"}
{"Strand": "TTAGGTCTCCTGCTGCTTTAGTGCTAG", "log fluorescence": "-0.447 z-score"}
{"Strand": "TTAGACTTCAGTTCCGATTAGTGCTAG", "log fluorescence": "0.89 z-score"}
{"Strand": "GAGGGTATCCTACTGCTGACGTGCTAG", "log fluorescence": "-0.663 z-score"}
{"data": "Further values, each from its own experiment"}
{"Molecule": "PhoQ, residues 284 288 289 292 302 303 SSCLAV", "target": "PhoP, residues 12 14 15 18 19 TPWLV (Escherichia coli, UniProt P23836)", "test": "Sort-seq, refers to: YFP reporter", "test system": "E. coli", "conditions": "PhoQ-PhoP variant library, with: 10 µM Mg2+", "how to read": "reference: high Mg2+ state, higher = stronger signaling", "endpoint": "fold induction", "result": 11.1}
